Measurements of several laboratories.
A part holds a random share of what one study measured.
UniProt P42336, sequence (whole entry, unmodified, looked up): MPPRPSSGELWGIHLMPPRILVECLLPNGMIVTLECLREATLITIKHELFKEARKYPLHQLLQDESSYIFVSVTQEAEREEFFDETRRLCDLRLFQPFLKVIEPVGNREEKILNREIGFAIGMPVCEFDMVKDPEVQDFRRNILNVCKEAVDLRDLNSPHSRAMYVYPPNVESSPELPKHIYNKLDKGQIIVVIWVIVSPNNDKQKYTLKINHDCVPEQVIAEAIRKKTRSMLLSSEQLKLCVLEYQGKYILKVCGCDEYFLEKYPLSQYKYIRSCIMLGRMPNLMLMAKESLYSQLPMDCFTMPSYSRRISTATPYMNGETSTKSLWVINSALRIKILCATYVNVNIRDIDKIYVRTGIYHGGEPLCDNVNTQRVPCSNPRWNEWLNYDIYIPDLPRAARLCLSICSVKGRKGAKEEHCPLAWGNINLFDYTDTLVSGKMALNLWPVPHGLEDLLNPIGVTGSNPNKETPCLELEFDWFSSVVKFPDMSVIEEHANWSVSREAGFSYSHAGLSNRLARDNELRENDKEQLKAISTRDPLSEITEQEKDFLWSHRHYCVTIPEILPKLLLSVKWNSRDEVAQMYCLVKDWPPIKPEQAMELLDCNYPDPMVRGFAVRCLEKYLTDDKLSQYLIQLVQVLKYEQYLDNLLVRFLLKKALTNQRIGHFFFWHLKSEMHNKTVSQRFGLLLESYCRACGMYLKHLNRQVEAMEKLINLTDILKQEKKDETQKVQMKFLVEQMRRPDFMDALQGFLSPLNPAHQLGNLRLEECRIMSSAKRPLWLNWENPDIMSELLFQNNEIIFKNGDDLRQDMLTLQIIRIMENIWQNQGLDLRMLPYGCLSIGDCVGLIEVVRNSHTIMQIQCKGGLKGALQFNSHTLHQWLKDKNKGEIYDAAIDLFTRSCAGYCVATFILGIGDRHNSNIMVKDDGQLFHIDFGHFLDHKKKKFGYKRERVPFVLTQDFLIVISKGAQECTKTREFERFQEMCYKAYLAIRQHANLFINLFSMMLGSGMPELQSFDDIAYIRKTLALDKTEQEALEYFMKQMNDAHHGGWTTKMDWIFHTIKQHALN
UniProt P78362, sequence (whole entry, looked up): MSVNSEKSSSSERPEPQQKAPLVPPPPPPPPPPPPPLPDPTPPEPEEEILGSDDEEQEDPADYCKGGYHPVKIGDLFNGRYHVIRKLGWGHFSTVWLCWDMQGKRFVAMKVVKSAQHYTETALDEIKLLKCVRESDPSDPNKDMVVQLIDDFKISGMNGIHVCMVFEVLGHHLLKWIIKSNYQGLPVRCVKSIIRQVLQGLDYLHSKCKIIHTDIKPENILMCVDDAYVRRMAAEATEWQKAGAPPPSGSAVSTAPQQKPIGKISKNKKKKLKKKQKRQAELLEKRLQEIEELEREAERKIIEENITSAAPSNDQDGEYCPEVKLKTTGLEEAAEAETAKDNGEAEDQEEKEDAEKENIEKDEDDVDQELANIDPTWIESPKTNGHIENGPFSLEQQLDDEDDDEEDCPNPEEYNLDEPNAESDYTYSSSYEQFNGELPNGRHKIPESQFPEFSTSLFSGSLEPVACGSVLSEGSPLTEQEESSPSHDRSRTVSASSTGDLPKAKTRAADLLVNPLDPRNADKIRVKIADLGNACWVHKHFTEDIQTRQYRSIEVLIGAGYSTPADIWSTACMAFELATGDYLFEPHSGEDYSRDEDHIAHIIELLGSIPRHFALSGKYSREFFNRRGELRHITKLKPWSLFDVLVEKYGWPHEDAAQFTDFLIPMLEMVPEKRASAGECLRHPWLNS
UniProt P29323, sequence (whole entry, looked up): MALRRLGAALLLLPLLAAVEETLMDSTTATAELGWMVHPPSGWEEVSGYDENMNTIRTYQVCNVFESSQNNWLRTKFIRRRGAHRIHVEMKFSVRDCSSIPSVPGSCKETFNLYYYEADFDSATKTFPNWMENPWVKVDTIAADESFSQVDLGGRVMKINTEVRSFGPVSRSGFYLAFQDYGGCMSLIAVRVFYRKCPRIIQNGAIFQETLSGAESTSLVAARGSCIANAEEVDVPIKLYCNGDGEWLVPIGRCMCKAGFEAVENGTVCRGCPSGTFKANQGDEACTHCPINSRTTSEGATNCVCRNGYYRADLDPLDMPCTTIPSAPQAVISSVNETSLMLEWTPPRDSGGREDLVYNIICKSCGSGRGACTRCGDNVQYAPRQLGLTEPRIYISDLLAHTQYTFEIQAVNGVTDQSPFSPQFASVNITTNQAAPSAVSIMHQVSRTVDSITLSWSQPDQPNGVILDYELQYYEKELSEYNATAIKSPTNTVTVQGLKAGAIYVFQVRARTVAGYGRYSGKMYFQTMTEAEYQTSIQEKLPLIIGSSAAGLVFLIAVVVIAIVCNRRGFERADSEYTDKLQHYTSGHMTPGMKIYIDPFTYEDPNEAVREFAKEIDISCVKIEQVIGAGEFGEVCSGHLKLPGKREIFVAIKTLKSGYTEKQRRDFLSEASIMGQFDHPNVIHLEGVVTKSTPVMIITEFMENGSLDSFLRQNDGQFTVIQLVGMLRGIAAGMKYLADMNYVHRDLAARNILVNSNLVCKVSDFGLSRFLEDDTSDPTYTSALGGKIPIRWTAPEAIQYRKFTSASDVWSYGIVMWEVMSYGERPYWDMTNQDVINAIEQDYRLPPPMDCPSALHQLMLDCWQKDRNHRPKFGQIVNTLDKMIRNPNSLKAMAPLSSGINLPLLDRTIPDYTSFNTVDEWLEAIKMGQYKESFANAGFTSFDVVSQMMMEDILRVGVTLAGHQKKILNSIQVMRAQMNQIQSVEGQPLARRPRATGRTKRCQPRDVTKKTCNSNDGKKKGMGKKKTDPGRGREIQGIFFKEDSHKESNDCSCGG
UniProt Q13470, sequence (whole entry, looked up): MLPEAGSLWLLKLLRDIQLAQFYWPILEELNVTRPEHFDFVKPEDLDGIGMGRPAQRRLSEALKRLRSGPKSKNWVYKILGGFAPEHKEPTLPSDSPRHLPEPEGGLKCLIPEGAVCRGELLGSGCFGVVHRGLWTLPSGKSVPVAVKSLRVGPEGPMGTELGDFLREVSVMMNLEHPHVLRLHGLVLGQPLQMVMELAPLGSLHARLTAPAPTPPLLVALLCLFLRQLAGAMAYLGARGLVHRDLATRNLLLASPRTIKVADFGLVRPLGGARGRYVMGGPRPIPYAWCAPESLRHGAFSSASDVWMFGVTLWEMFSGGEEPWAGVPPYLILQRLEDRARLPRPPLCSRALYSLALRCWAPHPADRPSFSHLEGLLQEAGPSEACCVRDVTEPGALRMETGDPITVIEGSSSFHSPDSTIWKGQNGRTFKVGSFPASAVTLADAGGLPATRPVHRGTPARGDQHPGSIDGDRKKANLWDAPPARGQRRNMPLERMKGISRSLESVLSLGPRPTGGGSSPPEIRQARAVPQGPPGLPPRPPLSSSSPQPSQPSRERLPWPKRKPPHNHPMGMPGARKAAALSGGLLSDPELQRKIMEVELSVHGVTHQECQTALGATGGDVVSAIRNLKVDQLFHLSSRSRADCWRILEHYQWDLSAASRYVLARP
UniProt O00141, sequence (whole entry, looked up): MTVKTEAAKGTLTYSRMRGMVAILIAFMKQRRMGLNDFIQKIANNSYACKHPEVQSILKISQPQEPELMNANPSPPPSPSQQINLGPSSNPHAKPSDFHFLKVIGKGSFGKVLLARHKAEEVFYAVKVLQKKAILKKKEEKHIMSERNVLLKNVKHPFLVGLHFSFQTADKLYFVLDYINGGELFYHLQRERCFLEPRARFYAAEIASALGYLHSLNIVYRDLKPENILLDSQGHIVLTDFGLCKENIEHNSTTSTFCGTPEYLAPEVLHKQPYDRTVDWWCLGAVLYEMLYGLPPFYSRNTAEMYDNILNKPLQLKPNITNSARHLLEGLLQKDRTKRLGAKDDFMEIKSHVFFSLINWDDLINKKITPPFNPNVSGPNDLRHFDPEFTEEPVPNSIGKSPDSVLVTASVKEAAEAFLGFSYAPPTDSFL

Set 1
Compound: CS(=O)(=O)N1CCCC(NC(=O)[C@H](CCC2CCCCC2)NC(=O)c2ccc(CNc3ncnc4c3nnn4-c3ccccc3)cc2)C1 (stereo partly drawn)
For Phosphatidylinositol 4,5-bisphosphate 3-kinase catalytic subunit alpha isoform (PIK3CA, Homo sapiens, UniProt P42336); cell-free assay, competition with immobilised ligand; 0.1 µM: remaining binding read 98%.
For Protein-tyrosine kinase 2-beta (PTK2B, Homo sapiens, UniProt Q14289); cell-free assay, competition with immobilised ligand; 0.1 µM: remaining binding read 94%.
The remaining binding was 100% (Serine/threonine-protein kinase Sgk1 (SGK1, Homo sapiens, UniProt O00141); cell-free assay, competition with immobilised ligand; 0.1 µM).
It gave 90% for remaining binding (Cyclin-dependent kinase 19 (CDK19, Homo sapiens, UniProt Q9BWU1); competition binding; 0.1 µM).
It gave 80% for remaining binding (Dual serine/threonine and tyrosine protein kinase (DSTYK, Homo sapiens, UniProt Q6XUX3); cell-free assay, competition with immobilised ligand; 0.1 µM).
It gave 100% for remaining binding (RAC-beta serine/threonine-protein kinase (AKT2, Homo sapiens, UniProt P31751); cell-free assay, competition with immobilised ligand; 0.1 µM).
The remaining binding was 97% (Myosin-IIIa (MYO3A, Homo sapiens, UniProt Q8NEV4); binding, competition with immobilised ligand; 0.1 µM).
Tyrosine-protein kinase Yes (YES1, Homo sapiens, UniProt P07947); cell-free assay, competition with immobilised ligand; 0.1 µM — remaining binding: 98%.
It gave 34% for remaining binding (SRSF protein kinase 2 (SRPK2, Homo sapiens, UniProt P78362); binding, competition with immobilised ligand; 1 µM).
Phosphatidylinositol 4-phosphate 3-kinase C2 domain-containing subunit beta (PIK3C2B, Homo sapiens, UniProt O00750); cell-free assay, competition with immobilised ligand; 0.1 µM — remaining binding: 95%.
It gave 100% for remaining binding (NUAK family SNF1-like kinase 1 (NUAK1, Homo sapiens, UniProt O60285); cell-free assay, competition with immobilised ligand; 0.1 µM).
For Ribosomal protein S6 kinase alpha-2, N-terminal kinase domain (RPS6KA2, Homo sapiens, UniProt Q15349); cell-free assay, competition with immobilised ligand; 0.1 µM: remaining binding read 100%.
For Non-receptor tyrosine-protein kinase TNK1 (TNK1, Homo sapiens, UniProt Q13470); cell-free assay, competition with immobilised ligand; 0.1 µM: remaining binding read 96%.
For Serine/threonine-protein kinase PAK 6 (PAK6, Homo sapiens, UniProt Q9NQU5); cell-free assay, competition with immobilised ligand; 0.1 µM: remaining binding read 100%.
Serine/threonine-protein kinase DCLK1 (DCLK1, Homo sapiens, UniProt O15075); cell-free assay, competition with immobilised ligand; 0.1 µM — remaining binding: 100%.
It gave 87% for remaining binding (Ephrin type-B receptor 2 (EPHB2, Homo sapiens, UniProt P29323); cell-free assay, competition with immobilised ligand; 0.1 µM).
For Phosphatidylinositol 4,5-bisphosphate 3-kinase catalytic subunit alpha isoform (PIK3CA, Homo sapiens, UniProt P42336, M1043I); cell-free assay, competition with immobilised ligand; 0.1 µM: remaining binding read 87%.
The remaining binding was 90% (Bone morphogenetic protein receptor type-1A (BMPR1A, Homo sapiens, UniProt P36894); binding, competition with immobilised ligand; 0.1 µM).
For Tyrosine-protein kinase Fyn (FYN, Homo sapiens, UniProt P06241); cell-free assay, competition with immobilised ligand; 0.1 µM: remaining binding read 56%.
The remaining binding was 89% (Mitogen-activated protein kinase kinase kinase 20 (MAP3K20, Homo sapiens, UniProt Q9NYL2); cell-free assay, competition with immobilised ligand; 0.1 µM).
For Serine/threonine-protein kinase PLK2 (PLK2, Homo sapiens, UniProt Q9NYY3); cell-free assay, competition with immobilised ligand; 0.1 µM: remaining binding read 99%.

Set 2
Structure (SMILES): Cc1sc(C(=O)NC2COC2)cc1-n1cc(NC(=O)Nc2c(F)cccc2Cl)cn1
Read-out: enzyme activity
Tested at: 10 µM
Reference: untreated control
G protein-coupled receptor kinase 4 (GRK4, Homo sapiens, UniProt P32298) — remaining activity: 108%.
The remaining activity was 103% (Focal adhesion kinase 1 (PTK2, Homo sapiens, UniProt Q05397)).
It gave 88.7% for remaining activity (Serine/threonine-protein kinase SIK2 (SIK2, Homo sapiens, UniProt Q9H0K1)).
It gave 93.1% for remaining activity (Serine/threonine-protein kinase pim-1 (PIM1, Homo sapiens, UniProt P11309)).
The remaining activity was 92.5% (Calcium/calmodulin-dependent protein kinase type 1G (CAMK1G, Homo sapiens, UniProt Q96NX5)).
For Cyclin-dependent kinase 16, with cyclin Y (CDK16, Homo sapiens, UniProt Q00536): remaining activity read 93.3%.
Serine/threonine-protein kinase B-raf (BRAF, Homo sapiens, UniProt P15056) — remaining activity: 101%.
The remaining activity was 78.8% (Ephrin type-A receptor 6 (EPHA6, Homo sapiens, UniProt Q9UF33)).
The remaining activity was 82.6% (Vascular endothelial growth factor receptor 1 (FLT1, Homo sapiens, UniProt P17948)).

Set 3
Target: Beta-1 adrenergic receptor (ADRB1, Homo sapiens, UniProt P08588)
UniProt P08588, sequence (whole entry, looked up): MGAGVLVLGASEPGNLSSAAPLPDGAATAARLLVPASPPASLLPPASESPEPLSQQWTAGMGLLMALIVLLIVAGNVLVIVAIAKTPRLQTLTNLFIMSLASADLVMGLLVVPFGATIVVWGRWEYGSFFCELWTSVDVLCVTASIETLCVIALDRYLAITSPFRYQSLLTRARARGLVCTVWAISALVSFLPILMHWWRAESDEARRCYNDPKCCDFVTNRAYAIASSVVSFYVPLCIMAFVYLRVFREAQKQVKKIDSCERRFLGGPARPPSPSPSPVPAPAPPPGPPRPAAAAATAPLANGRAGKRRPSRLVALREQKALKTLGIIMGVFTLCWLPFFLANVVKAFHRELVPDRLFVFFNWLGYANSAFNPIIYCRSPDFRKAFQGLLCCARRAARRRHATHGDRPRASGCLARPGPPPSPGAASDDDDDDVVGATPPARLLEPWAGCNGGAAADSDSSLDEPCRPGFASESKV
Action: antagonist
For `Cc1cc(F)ccc1-c1n[nH]c2ncc(-c3cnn(C)c3)nc12`, the IC50 was ≥ 100 µM.
`Cc1noc(C)c1-c1cc2cc(CNC3CCOCC3)oc2c(NC2CCN(C)CC2)n1` has an IC50 of ≥ 100 µM.
`Cc1cc(C)n(-c2cccc(NC(=O)Cc3noc4ccccc34)c2)n1` has an IC50 of ≥ 100 µM.
The IC50 of `COc1ccccc1C(=O)Nc1ccc(C(O)[C@H]2COCC(=O)N2)cc1` (stereo partly drawn) is reported as ≥ 100 µM.
`Cc1noc2c(N(C)C)cc(-c3ccsc3)nc12` gave an IC50 of ≥ 100 µM.
The IC50 of `Cc1nc(N)sc1-c1ccnc(Nc2ccc(N3CCOCC3)cc2)n1` is reported as ≥ 100 µM.

Set 4
Target: Calcium/calmodulin-dependent protein kinase type II subunit alpha (CAMK2A, Homo sapiens, UniProt Q9UQM7)
UniProt Q9UQM7, sequence (whole entry, looked up): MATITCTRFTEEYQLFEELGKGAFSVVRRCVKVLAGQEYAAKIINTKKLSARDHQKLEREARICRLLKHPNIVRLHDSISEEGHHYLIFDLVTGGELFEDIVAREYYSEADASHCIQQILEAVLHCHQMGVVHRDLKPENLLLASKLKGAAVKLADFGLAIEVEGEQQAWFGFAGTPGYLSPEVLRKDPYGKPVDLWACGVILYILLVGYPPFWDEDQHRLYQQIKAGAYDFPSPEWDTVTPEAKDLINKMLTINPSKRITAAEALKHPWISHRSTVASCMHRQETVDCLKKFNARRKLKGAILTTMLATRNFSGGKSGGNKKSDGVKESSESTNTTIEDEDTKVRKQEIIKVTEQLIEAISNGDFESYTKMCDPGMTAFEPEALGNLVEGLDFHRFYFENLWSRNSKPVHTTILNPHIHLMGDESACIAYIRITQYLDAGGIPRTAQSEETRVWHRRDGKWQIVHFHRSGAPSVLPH
Read-out: enzyme activity
Action: inhibitor
Tested at: 10 µM
For `C[C@H](CCC(=O)O)[C@H]1CC[C@H]2[C@@H]3[C@H](O)CC4=CC(=O)CC[C@]4(C)[C@H]3CC[C@]12C`, the inhibition was 4%.
`OC[C@@H](O)CN1CCN(c2ccccc2)CC1` has an inhibition of -1%.
`COc1nccc(N)n1` has an inhibition of 28%.
For `CCC(=O)c1c(O)cc(O)cc1O`, the inhibition was 17%.
For `CC[C@@H]1CN(C(=O)NCC(F)(F)F)C[C@@H]1c1cnc2cnc3[nH]ccc3n12`, the inhibition was 21%.
The inhibition of `COc1cc(/C=C/C(=O)OC[C@H]2O[C@H](O[C@]3(CO)O[C@H](CO)[C@@H](O)[C@@H]3O)[C@H](O)[C@@H](O)[C@@H]2O)cc(OC)c1O` is reported as 6%.
`CCOc1nc2cccc(C(=O)O)c2n1Cc1ccc(-c2ccccc2-c2nnn[nH]2)cc1` has an inhibition of -2%.
`CC(C)(C)c1ccc(O)c(C(C)(C)C)c1` has an inhibition of -13%.
`CC(C)[C@H](N)C(=O)N[C@@H](Cc1ccc(O)cc1)C(=O)O` gave an inhibition of -13%.

Repeated from above (set 1):
The remaining binding was 100% (Serine/threonine-protein kinase Sgk1 (SGK1, Homo sapiens, UniProt O00141); cell-free assay, competition with immobilised ligand; 0.1 µM).
It gave 90% for remaining binding (Cyclin-dependent kinase 19 (CDK19, Homo sapiens, UniProt Q9BWU1); competition binding; 0.1 µM).
It gave 80% for remaining binding (Dual serine/threonine and tyrosine protein kinase (DSTYK, Homo sapiens, UniProt Q6XUX3); cell-free assay, competition with immobilised ligand; 0.1 µM).
It gave 100% for remaining binding (RAC-beta serine/threonine-protein kinase (AKT2, Homo sapiens, UniProt P31751); cell-free assay, competition with immobilised ligand; 0.1 µM).
